Measurements gathered from unrelated publications.
Protocols differ between the studies behind these lines. “And” joins repeats or separate records; there may be more than shown. ± marks the error that the study gave.
MAPK8: Mitogen-activated protein kinase 8 (MAPK8, Homo sapiens, UniProt P45983)
UniProt Q92633, sequence (whole entry, looked up): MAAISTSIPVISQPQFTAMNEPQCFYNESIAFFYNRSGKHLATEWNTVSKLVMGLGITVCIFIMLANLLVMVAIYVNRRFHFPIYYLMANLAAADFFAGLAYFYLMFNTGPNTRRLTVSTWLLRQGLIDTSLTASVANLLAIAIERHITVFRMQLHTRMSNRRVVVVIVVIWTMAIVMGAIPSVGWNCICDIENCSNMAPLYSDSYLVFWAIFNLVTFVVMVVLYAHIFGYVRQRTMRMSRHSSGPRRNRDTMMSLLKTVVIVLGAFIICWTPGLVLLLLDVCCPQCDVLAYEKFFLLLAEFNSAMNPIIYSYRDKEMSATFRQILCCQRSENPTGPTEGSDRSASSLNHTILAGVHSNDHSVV
UniProt P45983, sequence (whole entry, looked up): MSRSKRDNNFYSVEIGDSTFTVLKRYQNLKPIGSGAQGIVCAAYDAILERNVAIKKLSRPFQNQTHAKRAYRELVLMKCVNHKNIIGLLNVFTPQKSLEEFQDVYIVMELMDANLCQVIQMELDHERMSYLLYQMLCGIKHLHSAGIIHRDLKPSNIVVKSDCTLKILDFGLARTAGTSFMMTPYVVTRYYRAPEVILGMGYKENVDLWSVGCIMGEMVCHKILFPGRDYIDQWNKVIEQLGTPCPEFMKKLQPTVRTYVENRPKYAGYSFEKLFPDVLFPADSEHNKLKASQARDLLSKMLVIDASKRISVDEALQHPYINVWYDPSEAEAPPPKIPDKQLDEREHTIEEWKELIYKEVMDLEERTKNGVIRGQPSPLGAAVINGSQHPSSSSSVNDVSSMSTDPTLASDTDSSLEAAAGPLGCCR
UniProt Q15910, sequence (whole entry, looked up): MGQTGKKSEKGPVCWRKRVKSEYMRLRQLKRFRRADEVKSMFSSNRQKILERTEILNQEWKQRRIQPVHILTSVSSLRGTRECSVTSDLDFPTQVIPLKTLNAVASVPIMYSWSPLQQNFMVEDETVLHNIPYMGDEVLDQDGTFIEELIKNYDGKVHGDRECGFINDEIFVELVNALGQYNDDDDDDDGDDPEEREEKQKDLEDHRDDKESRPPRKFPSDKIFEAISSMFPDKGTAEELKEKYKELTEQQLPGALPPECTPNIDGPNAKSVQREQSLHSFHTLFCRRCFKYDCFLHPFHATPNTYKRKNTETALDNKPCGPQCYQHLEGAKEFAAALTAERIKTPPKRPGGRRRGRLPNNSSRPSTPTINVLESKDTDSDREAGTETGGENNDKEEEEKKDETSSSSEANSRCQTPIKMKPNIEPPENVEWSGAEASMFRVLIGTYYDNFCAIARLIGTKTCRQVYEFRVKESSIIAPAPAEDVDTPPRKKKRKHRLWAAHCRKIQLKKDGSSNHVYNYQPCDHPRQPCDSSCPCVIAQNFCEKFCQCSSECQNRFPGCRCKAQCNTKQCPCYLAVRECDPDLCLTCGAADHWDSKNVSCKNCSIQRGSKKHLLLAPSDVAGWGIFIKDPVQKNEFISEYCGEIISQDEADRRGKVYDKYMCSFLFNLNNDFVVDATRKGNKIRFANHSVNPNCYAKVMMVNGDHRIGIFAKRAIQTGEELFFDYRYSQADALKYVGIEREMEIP
UniProt O15355, sequence (whole entry, looked up): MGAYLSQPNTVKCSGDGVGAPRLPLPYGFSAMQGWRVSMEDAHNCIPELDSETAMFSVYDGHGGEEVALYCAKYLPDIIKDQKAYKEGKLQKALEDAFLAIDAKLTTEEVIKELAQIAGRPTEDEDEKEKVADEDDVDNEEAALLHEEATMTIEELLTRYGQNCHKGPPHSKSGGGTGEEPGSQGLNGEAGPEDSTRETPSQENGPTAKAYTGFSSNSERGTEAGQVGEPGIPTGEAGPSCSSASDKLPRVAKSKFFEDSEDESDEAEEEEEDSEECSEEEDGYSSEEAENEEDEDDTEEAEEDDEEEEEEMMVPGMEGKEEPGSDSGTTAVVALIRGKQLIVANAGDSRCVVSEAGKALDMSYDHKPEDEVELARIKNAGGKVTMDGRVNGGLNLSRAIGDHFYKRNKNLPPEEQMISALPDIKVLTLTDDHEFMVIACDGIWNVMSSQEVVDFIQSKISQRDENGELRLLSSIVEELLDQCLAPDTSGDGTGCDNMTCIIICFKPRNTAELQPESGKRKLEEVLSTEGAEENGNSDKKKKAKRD
UniProt P31641, sequence (whole entry, unmodified, looked up): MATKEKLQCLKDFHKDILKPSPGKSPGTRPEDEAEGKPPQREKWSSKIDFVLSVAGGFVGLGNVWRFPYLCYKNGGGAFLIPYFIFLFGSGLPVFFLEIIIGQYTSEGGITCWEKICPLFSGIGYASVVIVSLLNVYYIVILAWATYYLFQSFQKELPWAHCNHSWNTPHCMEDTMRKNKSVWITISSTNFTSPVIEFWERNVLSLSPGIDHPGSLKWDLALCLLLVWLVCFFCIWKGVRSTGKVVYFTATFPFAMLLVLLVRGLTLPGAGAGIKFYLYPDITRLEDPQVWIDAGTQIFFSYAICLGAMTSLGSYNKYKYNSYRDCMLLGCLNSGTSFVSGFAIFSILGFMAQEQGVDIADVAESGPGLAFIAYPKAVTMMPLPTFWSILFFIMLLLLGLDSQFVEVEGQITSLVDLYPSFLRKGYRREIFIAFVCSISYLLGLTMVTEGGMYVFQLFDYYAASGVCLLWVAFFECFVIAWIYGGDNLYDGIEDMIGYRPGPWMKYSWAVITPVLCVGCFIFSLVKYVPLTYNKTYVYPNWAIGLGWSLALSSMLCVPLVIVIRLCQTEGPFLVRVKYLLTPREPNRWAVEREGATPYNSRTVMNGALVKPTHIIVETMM
UniProt P02754, sequence (whole entry, unmodified, looked up): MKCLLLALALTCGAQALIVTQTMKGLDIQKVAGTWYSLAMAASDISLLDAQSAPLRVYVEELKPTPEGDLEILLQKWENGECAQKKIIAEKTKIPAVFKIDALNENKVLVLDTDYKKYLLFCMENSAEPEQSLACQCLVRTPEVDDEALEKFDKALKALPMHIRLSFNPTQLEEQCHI
UniProt P47936, sequence (whole entry, looked up): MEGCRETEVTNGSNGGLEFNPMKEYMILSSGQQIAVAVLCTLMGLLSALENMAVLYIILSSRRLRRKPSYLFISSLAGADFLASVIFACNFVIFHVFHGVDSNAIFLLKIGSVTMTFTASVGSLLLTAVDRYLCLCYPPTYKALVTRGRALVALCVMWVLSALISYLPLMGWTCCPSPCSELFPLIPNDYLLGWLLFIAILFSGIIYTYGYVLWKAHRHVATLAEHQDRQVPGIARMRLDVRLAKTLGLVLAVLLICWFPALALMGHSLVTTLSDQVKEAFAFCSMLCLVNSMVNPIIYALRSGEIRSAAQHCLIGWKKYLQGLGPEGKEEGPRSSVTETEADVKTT
UniProt Q13572, sequence (whole entry, looked up): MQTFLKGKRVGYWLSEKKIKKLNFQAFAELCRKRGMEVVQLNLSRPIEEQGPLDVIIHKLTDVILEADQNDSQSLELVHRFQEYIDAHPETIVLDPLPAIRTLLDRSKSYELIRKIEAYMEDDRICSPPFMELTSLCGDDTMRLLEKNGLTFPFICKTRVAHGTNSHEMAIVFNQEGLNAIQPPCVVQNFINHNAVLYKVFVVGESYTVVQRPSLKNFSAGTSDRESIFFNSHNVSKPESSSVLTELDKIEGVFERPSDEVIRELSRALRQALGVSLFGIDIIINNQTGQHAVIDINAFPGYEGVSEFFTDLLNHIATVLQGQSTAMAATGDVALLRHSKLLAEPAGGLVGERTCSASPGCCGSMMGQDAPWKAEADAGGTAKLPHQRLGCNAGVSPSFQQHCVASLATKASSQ
UniProt P15170, sequence (whole entry, looked up): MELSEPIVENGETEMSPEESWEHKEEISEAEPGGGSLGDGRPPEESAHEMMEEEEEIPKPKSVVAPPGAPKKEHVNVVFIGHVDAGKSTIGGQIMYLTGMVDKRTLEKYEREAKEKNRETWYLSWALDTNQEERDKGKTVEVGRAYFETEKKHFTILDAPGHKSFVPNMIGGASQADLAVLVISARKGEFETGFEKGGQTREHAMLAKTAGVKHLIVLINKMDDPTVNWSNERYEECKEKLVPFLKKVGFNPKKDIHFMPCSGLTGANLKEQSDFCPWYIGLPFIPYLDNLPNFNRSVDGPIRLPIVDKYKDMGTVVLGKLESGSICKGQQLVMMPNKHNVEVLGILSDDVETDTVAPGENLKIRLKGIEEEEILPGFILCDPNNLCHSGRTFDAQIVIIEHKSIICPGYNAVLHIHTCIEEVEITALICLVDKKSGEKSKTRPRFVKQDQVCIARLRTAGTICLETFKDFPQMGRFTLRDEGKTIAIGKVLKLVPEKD
UniProt Q96SW2, sequence (whole entry, looked up): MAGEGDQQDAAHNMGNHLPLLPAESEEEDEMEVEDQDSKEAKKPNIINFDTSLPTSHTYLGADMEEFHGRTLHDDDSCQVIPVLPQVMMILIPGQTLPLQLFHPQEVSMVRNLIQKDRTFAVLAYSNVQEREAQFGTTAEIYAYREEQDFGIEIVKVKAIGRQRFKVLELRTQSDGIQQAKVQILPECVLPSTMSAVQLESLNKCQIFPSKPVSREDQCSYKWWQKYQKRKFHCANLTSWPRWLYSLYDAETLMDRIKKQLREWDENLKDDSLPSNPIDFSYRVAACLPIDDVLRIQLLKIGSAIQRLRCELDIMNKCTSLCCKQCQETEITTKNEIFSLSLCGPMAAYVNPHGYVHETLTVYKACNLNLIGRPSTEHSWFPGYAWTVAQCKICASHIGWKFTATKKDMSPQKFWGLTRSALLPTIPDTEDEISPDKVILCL

For `CCCCCCCC/C=C\CCCCCCCC(=O)OCC(O)COP(=O)(O)O` (stereo not shown), the fold change was 0.972 and 0.964 and 0.963 and 0.979 and 0.935 and 0.944 (LPAR1 (Homo sapiens, UniProt Q92633); G-protein dissociation, agonist, NanoBiT; HEK-293T; 1 nM, wild-type receptor; baseline: baseline luminescence).
The Km of `O=P(O)(O)O[C@H]1[C@H](OP(=O)(O)O)[C@@H](OP(=O)(O)O)[C@@H](O)[C@@H](O)[C@@H]1OP(=O)(O)O` is reported as 380 nM (Inositol-tetrakisphosphate 1-kinase (Homo sapiens, UniProt Q13572); enzyme activity, substrate, ADP detection).
For `CCCCCC=CC=C1C(=O)C=CC1CC=CCCCC(=O)O` (stereo not shown), “isoTOP-ABPP competition ratio” read 2.2 (Protein phosphatase 1G (Homo sapiens, UniProt O15355); competitive isoTOP-ABPP, refers to: PPM1G cysteine peptide; Ramos soluble proteome; 100 µM, together with: iodoacetamide probe; baseline: DMSO over compound-treated, higher = stronger cysteine blockade).
For `NCc1cc2c(cc1F)C(=O)N(C1CCC(=O)NC1=O)C2` (stereo not shown), the Dmax was 99% (GSPT1/CRBN (Homo sapiens, UniProt P15170+Q96SW2); degrader, Western blot; Hep3B; 24 h).
For `CCOC(=O)C(CC)(CCCSCCOCCOCCOCCNc1ccc([N+](=O)[O-])c2nonc12)NC(=O)c1ccc(C2CC2)c(Cc2ccc(F)cc2)n1` (stereo not shown), the Emax was 113% (Cnr2 (Mus musculus, UniProt P47936); cAMP, agonist).
`OC[C@H]1O[C@@H](Oc2ccccc2-c2ccccc2)[C@H](O)[C@@H](O)[C@H]1O` has an inhibition (PI10) of 31 ± 2.1% (Adhesin FmlH, lectin domain (Escherichia coli, UniProt Q1RBS0); binding to desialylated BSM, competition ELISA; UPEC UTI89; 10 µM).
The binding stoichiometry of `O=C(O)C1OC(OC2C(C(=O)O)OC(OC3C(C(=O)O)OC(OC4C(C(=O)O)OC(O)C(O)C4O)C(O)C3O)C(O)C2O)C(O)C(O)C1O` (stereo not shown) is reported as 4 (Beta-lactoglobulin (LGB, Bos taurus, UniProt P02754, A134V/G80D); isothermal titration calorimetry; concentration not given, pH 4.00, 37 °C, 50 mM KH2PO4; ligand per protein).
Under “normalised MST signal”, `N=C(N)NCCS(=O)(=O)O` is recorded as -0.00861 (SLC6A6 (Homo sapiens, UniProt P31641, G62A); binding, microscale thermophoresis; 7.81 µM, room temperature, together with: 50 nM labelled protein; higher = more binding).
The residence time of `CSc1cc(C)[nH]c(=O)c1CNC(=O)c1cc(Cl)c2c(c1C)OC(C)(C1CCC(N(C)C)CC1)O2` (stereo not shown) is reported as 138000 min (EZH2 (Homo sapiens, UniProt Q15910); binding, TR-FRET; together with: H3K27me3 activating peptide).
With `CN(C)c1ccc(-n2cc(COC(=O)[C@]3(C)C=C(C(=O)OC(C)(C)C)C(=O)CC3)nn2)cc1` the fraction bound was 0.918 (MAPK8; D-peptide binding, inhibitor, FP peptide displacement; 0.7812 µM; lower is stronger displacement).
The remaining activity of `CN(Cc1cc(C2CC2)on1)C(=O)c1cccc(-c2ccc3c(c2)CCO3)c1` is reported as 100% (acetoacetyl-CoA synthetase (Cryptococcus neoformans); enzyme activity, inhibitor; 1.95 µM).
`C=C1CC2(C(=O)OC)C=C(C(=O)OC(C)(C)C)C(=O)C1C2` (stereo not shown) has a fraction bound of 1.79e-16 (MAPK8; D-peptide binding, inhibitor, FP peptide displacement; 1000 µM; lower is stronger displacement).
`CN1CCN(c2ccc3[nH]c(-c4ccc5[nH]c(-c6ccc(OCCCCNC(=O)c7ccc8c(c7)C(=O)OC87c8ccc(N(C)C)cc8[Si](C)(C)c8cc(N(C)C)ccc87)cc6)nc5c4)nc3c2)CC1` gave a fluorescence increase of 1.5 fold (Albumin (ALB, Bos taurus, UniProt P02769); covalent crosslinking, fluorescence, in-gel, SDS-PAGE; 24 h, 37 °C; baseline: 4-regioisomer).

A few entries again:
The binding stoichiometry of `O=C(O)C1OC(OC2C(C(=O)O)OC(OC3C(C(=O)O)OC(OC4C(C(=O)O)OC(O)C(O)C4O)C(O)C3O)C(O)C2O)C(O)C(O)C1O` (stereo not shown) is reported as 4 (Beta-lactoglobulin (LGB, Bos taurus, UniProt P02754, A134V/G80D); isothermal titration calorimetry; concentration not given, pH 4.00, 37 °C, 50 mM KH2PO4; ligand per protein).
